Experimental data of several laboratories.
± marks the error that the study gave.

O=C(c1ccc(F)c(F)c1Nc1ccc(I)cc1F)N1CC(O)([C@@H]2CCCCN2)C1
treatment-related adverse events (item: retinal detachment; human patients; oral, dose not given, dose escalation, suspension, grade G2): 0%

CC1(C)S[C@@H]2[C@H](NC(=O)[C@H](C(=O)O)c3ccsc3)C(=O)N2[C@H]1C(=O)O
relative error (rat plasma; 2400 ng/mL, three freeze-thaw cycles; baseline: nominal concentration): 1.6%

CSCC[C@@H]1NC(=O)[C@H](CC(=O)O)NC(=O)CNC(=O)[C@H](CCCNC(=N)N)NC(=O)[C@H](C)NC(=O)[C@H](CCC(=O)O)NC(=O)[C@H](CCCNC(=N)N)NC(=O)[C@@H]2CSSC[C@@H]3NC(=O)[C@H](CO)NC(=O)[C@H]([C@@H](C)O)NC(=O)[C@@H]4CCCN4C(=O)[C@H](C)NC(=O)[C@H](Cc4c[nH]c5ccccc45)NC(=O)[C@H](CC(=O)O)NC(=O)CNC(=O)[C@H](CCCNC(=N)N)NC(=O)CNC(=O)[C@H](CCC(N)=O)NC(=O)[C@@H]4CCCN4C(=O)[C@@H](NC(=O)CNC(=O)C(C)F)CSSC[C@H](NC(=O)CNC(=O)[C@H](C)NC(=O)[C@H](CC(C)C)NC(=O)[C@H](CSSC[C@@H](C(=O)NCC(N)=O)NC(=O)[C@H]([C@@H](C)O)NC(=O)[C@H](CCCNC(=N)N)NC(=O)[C@@H]4CCCN4C1=O)NC(=O)[C@H](CC(=O)O)NC(=O)[C@H](CO)NC(=O)[C@H](CC(=O)O)NC(=O)[C@H](CCC(N)=O)NC(=O)[C@H](CO)NC3=O)C(=O)N[C@@H](C(C)C)C(=O)N2 (stereo partly drawn) [fluorine-18 labelled]
tissue uptake (nude mice U-87 MG xenograft, bone; intravenous, 0.5 h): 0.79 ± 0.17 %ID/g

Oc1ccc2ccc3cccc4ccc1c2c34
tissue concentration (HPLC-fluorescence; Wistar rat, male, colon; oral, 4 mg/kg PY, 24 h): 13100 ± 796 ng/g

O[C@H]1CCCN[C@@H]1CCCn1cnc2c(Cl)c(Cl)ccc21
Vz/F (healthy human volunteers, plasma; oral, 100 mg, day 1, multiple ascending dose): 1440 L

CC[C@H](C)[C@H](NC(=O)[C@H](CC(C)C)NC(=O)[C@H](Cc1c[nH]c2ccccc12)NC(=O)[C@H](CCC(N)=O)NC(=O)[C@@H](NC(=O)[C@H](Cc1ccccc1)NC(=O)[C@H](C)NC(=O)[C@H](CCCCNC(=O)COCCOCCNC(=O)COCCOCCNC(=O)CC[C@H](NC(=O)CCCCCCCCCCCCCCCCCCC(=O)O)C(=O)O)NC(=O)[C@H](CCC(N)=O)NC(=O)[C@H](C)NC(=O)[C@@H](NC(=O)[C@H](CCCCN)NC(=O)[C@H](CC(=O)O)NC(=O)[C@H](CC(C)C)NC(=O)C(C)(C)NC(=O)[C@@H](NC(=O)[C@H](CO)NC(=O)[C@H](Cc1ccc(O)cc1)NC(=O)[C@H](CC(=O)O)NC(=O)[C@H](CO)NC(=O)[C@@H](NC(=O)[C@H](Cc1ccccc1)NC(=O)[C@@H](NC(=O)CNC(=O)[C@H](CCC(=O)O)NC(=O)C(C)(C)NC(=O)[C@@H](N)Cc1ccc(O)cc1)[C@@H](C)O)[C@@H](C)O)[C@@H](C)CC)[C@@H](C)CC)C(C)C)C(=O)N[C@@H](C)C(=O)NCC(=O)NCC(=O)N1CCC[C@H]1C(=O)N[C@@H](CO)C(=O)N[C@@H](CO)C(=O)NCC(=O)N[C@@H](C)C(=O)N1CCC[C@H]1C(=O)N1CCC[C@H]1C(=O)N1CCC[C@H]1C(=O)N[C@@H](CO)C(N)=O
tmax difference (human, mild hepatic impairment; subcutaneous, 5 mg; baseline: normal hepatic function): 0 h

O=c1[nH]c(=O)[nH]c(=O)[nH]1
serum concentration (CD IGS rat, female, pregnant, serum; oral, 1000 mg/kg/day, 10 days, with rectangular renal crystals): > 152 µg/mL

CN[C@@](C)(C[18F])C(=O)O
tissue uptake (SCID mouse A549 xenograft, lung; 120 min, post injection): 1.7 ± 0.2 %ID/g

CC(=O)N[C@H](CCCCNC(=O)C(C)F)C(=O)N[C@@H](CS)C(=O)N[C@@H](CS)C(=O)N[C@@H](CCC(=O)O)C(=O)N[C@@H](Cc1c[nH]cn1)C(=O)N[C@H](Cc1ccccc1)C(=O)N[C@@H](CCCNC(=N)N)C(=O)N[C@@H](Cc1c[nH]c2ccccc12)C(=O)N[C@@H](CS)C(=O)N[C@@H](CCCNC(=N)N)C(=O)N1CCC[C@H]1C(=O)N[C@H](C(N)=O)C(C)C (stereo partly drawn) [fluorine-18 labelled]
tissue uptake (C57BL/6 mice, male, B16-F10 tumour, brain; intravenous, 4 h): 0.04 ± 0.01 %ID/g

CC[C@H](C)[C@H](NC(=O)[C@H](CCCNC(=N)N)NC(=O)[C@H](CCCNC(=N)N)NC(=O)c1ccc2c(c1)C(=O)OC21c2ccc(O)cc2Oc2cc(O)ccc21)C(=O)N[C@@H](CCCNC(=N)N)C(=O)N1CCC[C@H]1C(=O)N[C@@H](CCCNC(=N)N)C(=O)N1CCC[C@H]1C(=O)N1CCC[C@H]1C(=O)N[C@@H](CCCNC(=N)N)C(=O)N[C@@H](CC(C)C)C(=O)N1CCC[C@H]1C(=O)N[C@@H](CCCNC(=N)N)C(=O)N1CCC[C@H]1C(=O)N[C@@H](CCCNC(=N)N)C(=O)N1CCC[C@H]1C(=O)N[C@@H](CCCNC(=N)N)C(=O)N1CCC[C@H]1C(=O)N[C@@H](CC(C)C)C(=O)N1CCC[C@H]1C(=O)N[C@@H](Cc1ccccc1)C(=O)N1CCC[C@H]1C(=O)N[C@@H](CCCNC(=N)N)C(=O)N1CCC[C@H]1C(=O)NCC(=O)O
apparent skin permeability (no effect; Sprague-Dawley rat, excised skin; 50 µmol/L, 37 °C, FAM-labelled CPP conjugate; baseline: free FAM): no effect

C#Cc1cccc2c1[nH]c1cnc(C(=O)OC(C)(C)C)cc12
brain concentration (Wistar rat, brain; intraperitoneal, 10 mg/kg single dose on day 4, 20 min after dose, vehicle for 3 days before, with: diazepam 2 mg/kg): 64.8 ± 15.6 nM

CCCCCCCCCCCC[N+](C)(C)Cc1ccccc1
unbound fraction in blood (ultrafiltration; human serum): 0.048

Excerpt of the above:
CCCCCCCCCCCC[N+](C)(C)Cc1ccccc1
unbound fraction in blood (ultrafiltration; human serum): 0.048
